Results pooled from the literature.
Each line is one published result; not all experiments were run side by side. Several values in a cell are separate wells, animals, samples, runs or records. ± gives the spread as reported.
PRT1: E3 ubiquitin-protein ligase PRT1 (PRT1, Arabidopsis thaliana, UniProt Q8LBL5)
Chain of UniProt Q8LBL5 (whole entry, looked up): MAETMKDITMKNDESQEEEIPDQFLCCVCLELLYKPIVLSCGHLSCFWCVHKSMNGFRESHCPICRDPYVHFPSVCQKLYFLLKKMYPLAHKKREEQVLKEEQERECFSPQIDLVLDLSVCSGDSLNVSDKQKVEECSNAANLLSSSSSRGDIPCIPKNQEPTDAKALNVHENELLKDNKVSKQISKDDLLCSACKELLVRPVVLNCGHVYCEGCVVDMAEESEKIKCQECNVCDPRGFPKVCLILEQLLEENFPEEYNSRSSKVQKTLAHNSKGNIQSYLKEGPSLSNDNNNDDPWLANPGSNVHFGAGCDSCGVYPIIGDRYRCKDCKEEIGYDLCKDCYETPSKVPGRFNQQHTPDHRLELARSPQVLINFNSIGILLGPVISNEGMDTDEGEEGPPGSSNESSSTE
YES1 SH2 domain: Tyrosine-protein kinase Yes, SH2 domain (YES1, Homo sapiens, UniProt P07947)
Chain of UniProt P07947 (whole entry, looked up): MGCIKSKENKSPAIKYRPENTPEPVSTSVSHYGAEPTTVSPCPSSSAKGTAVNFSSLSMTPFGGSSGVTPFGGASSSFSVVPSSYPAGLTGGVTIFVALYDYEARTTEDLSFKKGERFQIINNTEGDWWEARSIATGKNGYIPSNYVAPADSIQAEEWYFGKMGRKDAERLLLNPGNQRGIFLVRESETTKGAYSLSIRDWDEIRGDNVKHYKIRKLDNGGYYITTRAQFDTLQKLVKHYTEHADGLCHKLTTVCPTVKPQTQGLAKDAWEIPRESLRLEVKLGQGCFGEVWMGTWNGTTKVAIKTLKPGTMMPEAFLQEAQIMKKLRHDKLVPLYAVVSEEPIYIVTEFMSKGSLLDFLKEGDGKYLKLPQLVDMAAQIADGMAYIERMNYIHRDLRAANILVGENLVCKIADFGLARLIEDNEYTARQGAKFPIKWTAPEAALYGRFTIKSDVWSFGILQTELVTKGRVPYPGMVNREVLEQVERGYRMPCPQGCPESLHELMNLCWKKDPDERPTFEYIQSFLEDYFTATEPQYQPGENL
Chain of UniProt P21553 (whole entry, looked up): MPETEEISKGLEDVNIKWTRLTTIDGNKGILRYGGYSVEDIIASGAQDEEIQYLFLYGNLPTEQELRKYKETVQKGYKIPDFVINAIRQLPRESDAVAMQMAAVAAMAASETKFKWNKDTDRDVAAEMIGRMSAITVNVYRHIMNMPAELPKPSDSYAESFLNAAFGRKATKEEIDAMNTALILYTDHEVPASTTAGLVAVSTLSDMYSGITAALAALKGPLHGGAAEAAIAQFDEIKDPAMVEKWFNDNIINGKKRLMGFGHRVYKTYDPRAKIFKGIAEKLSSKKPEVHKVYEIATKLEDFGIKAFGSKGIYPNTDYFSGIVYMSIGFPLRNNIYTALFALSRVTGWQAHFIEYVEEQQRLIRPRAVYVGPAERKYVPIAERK
Chain of UniProt P48730 (whole entry, looked up): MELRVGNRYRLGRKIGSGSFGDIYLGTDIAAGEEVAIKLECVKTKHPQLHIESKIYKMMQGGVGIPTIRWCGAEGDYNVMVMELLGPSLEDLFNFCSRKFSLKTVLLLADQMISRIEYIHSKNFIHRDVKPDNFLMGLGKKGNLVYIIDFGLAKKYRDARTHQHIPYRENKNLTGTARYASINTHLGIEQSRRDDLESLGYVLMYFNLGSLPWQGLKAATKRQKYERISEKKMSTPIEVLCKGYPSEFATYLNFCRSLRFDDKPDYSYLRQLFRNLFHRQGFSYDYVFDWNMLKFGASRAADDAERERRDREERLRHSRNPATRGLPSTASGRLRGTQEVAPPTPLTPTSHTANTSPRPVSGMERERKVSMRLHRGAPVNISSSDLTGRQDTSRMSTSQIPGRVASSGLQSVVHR
Chain of UniProt Q70CQ1 (whole entry, looked up): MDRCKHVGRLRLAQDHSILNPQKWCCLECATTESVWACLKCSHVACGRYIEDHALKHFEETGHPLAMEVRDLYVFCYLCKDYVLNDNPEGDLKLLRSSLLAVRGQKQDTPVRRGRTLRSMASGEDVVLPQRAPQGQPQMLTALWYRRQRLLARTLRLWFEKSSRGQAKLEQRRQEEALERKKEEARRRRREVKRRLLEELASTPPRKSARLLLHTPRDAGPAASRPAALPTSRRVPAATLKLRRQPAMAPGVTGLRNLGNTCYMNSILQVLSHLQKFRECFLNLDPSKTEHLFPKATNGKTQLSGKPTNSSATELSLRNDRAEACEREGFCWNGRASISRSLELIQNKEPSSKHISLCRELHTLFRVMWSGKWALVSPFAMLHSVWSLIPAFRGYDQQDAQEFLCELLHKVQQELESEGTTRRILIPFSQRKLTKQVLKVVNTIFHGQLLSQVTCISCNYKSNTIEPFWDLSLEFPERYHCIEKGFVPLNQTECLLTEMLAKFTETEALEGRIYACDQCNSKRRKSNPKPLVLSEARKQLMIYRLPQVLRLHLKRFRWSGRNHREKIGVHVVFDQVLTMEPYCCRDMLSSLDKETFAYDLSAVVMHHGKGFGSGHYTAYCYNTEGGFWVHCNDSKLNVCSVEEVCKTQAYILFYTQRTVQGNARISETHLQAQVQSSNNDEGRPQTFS
Chain of UniProt P40874 (whole entry, looked up): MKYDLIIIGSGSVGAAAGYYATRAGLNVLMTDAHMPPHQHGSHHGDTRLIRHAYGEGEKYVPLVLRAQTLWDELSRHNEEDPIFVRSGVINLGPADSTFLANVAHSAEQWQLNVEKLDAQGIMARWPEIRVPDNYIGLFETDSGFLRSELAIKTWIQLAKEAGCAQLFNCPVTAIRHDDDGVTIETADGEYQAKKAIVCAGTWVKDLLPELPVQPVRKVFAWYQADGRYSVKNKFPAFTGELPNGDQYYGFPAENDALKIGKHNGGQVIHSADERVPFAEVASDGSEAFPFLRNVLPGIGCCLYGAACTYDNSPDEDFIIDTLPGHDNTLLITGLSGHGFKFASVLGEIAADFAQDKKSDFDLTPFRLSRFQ
Chain of UniProt Q9EP73 (whole entry, looked up): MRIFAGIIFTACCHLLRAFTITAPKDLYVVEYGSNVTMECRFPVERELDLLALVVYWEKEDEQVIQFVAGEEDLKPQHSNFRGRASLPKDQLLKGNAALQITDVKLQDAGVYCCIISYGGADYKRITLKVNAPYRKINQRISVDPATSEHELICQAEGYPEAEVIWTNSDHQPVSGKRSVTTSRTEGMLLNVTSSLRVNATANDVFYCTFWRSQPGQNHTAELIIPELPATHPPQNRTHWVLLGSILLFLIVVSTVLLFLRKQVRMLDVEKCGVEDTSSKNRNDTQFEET
Chain of UniProt P16885 (whole entry, looked up): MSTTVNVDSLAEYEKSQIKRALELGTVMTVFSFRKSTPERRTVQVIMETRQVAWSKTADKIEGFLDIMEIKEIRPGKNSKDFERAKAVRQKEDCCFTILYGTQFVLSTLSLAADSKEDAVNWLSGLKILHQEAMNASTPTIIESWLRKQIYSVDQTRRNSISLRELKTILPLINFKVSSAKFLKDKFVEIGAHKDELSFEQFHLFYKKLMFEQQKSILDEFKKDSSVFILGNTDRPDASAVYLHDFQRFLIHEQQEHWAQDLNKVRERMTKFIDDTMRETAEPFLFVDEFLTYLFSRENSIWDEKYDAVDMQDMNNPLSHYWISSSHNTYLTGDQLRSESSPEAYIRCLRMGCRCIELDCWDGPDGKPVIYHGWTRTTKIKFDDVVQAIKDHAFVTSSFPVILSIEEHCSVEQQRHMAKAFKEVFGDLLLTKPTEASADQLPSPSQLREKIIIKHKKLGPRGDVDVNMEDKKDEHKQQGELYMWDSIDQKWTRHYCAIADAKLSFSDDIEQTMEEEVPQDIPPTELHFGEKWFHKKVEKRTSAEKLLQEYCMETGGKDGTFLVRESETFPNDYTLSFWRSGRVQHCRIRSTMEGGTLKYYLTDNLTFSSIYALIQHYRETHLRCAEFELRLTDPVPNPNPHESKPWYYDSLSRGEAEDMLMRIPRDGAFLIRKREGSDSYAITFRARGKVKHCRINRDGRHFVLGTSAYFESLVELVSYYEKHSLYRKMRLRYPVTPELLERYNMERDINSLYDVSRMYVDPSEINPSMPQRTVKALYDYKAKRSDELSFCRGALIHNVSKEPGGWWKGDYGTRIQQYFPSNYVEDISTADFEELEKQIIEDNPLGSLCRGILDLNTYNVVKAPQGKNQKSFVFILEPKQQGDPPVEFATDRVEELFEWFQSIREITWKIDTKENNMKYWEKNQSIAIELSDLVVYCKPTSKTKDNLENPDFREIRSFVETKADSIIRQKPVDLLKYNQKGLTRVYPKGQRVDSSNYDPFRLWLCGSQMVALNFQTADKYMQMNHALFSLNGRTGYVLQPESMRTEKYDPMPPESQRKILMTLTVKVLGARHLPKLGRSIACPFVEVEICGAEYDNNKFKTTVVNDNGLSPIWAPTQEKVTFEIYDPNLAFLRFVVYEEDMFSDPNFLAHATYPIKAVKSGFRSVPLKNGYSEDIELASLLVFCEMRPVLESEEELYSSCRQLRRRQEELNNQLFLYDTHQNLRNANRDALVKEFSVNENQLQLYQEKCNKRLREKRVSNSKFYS

Structure (SMILES)	target	test	system	setting	Kd
CC[C@H](C)[C@H](NC(=O)[C@H](Cc1ccc(OP(=O)(O)O)cc1)NC(=O)[C@H](CCC(=O)O)NC(=O)[C@@H]1CCCN1C(=O)[C@@H](NC(=O)[C@@H]1CCCN1C(=O)[C@H](CC(C)C)NC(=O)[C@H](Cc1ccccc1)NC(=O)[C@@H](NC(=O)[C@H](CC(=O)O)NC(=O)[C@H](CC(=O)O)NC(=O)c1ccc2c(c1)C(=O)OC21c2ccc(N(C)C)cc2Oc2cc(N(C)C)ccc21)[C@@H](C)O)C(C)C)C(=O)N[C@@H](CC(N)=O)C(=O)N[C@@H](CCC(N)=O)C(=O)N[C@@H](CO)C(=O)N[C@H](C(=O)N1CCC[C@H]1C(=O)N[C@@H](CCCCN)C(=O)N[C@@H](CC(=O)O)C(=O)O)C(C)C	Growth factor receptor-bound protein 2, SH2 domain (GRB2, Homo sapiens, UniProt P62993)	binding			0.198 µM
CC[C@H](CO)Nc1nc(NCc2ccc(-c3ccccn3)cc2)c2ncn(C(C)C)c2n1	CSNK1D (Homo sapiens, UniProt P48730)	binding, competition affinity chromatography	SH-SY5Y cell extract		2.65 µM
CC[C@H](C)[C@H](NC(=O)[C@H](CC(=O)O)NC(=O)[C@H](C)NC(=O)[C@H](Cc1ccc(OP(=O)(O)O)cc1)NC(=O)[C@H](CCCCN)NC(=O)[C@@H](NC(=O)[C@H](CC(=O)O)NC(=O)CNC(=O)[C@H](CCCCN)NC(=O)[C@H](CCSC)NC(=O)[C@H](CC(=O)O)NC(=O)[C@H](CC(C)C)NC(=O)[C@H](CCSC)NC(=O)c1ccc2c(c1)C(=O)OC21c2ccc(N(C)C)cc2Oc2cc(N(C)C)ccc21)C(C)C)C(=O)N[C@@H](CCC(=O)O)C(=O)N[C@@H](CO)C(=O)N[C@@H](CO)C(=O)N[C@@H](CC(N)=O)C(=O)N[C@@H](CC(=O)O)C(=O)O	1-phosphatidylinositol 4,5-bisphosphate phosphodiesterase gamma-2, SH2 domain (PLCG2, Homo sapiens, UniProt P16885)	binding			0.557 µM
CC(C)S[C@@H]1O[C@H](CO)[C@H](O)[C@H](O)[C@H]1O	lacI (Escherichia coli, UniProt P03023, D149A/N125A)	binding, fluorescence titration		no operator DNA	8.5 ± 0.2 µM
CC[C@@H](C)[C@@H](NC(=O)[C@@H](Cc1ccc(O)cc1)NC(=O)[C@H]1CCCN1C(=O)[C@@H](CCCNC(=N)N)NC(=O)[C@H](N)Cc1c[nH]cn1)C(=O)N[C@H](C)C(=O)N[C@H](Cc1c[nH]cn1)C(=O)N[C@H](CCCNC(=N)N)C(=O)N[C@H](CCCCNC(=O)c1cccc(S(=O)(=O)F)c1)C(=O)N[C@H](Cc1ccc(O)cc1)C(=O)N[C@H](CO)C(=O)N[C@H](Cc1ccccc1)C(N)=O	Cd274 (Mus musculus, UniProt Q9EP73)	microscale thermophoresis		2 h, His-tagged protein	1.3 ± 0.3 µM
CSCC[C@H](NC(=O)[C@H](CC(=O)O)NC(=O)c1ccc2c(c1)C(=O)OC21c2ccc(N(C)C)cc2Oc2cc(N(C)C)ccc21)C(=O)N[C@@H](CO)C(=O)N[C@@H](CCCCN)C(=O)N[C@@H](CC(=O)O)C(=O)N[C@@H](CCC(=O)O)C(=O)N[C@@H](CO)C(=O)N[C@H](C(=O)N[C@@H](CC(=O)O)C(=O)N[C@@H](Cc1ccc(OP(=O)(O)O)cc1)C(=O)N[C@H](C(=O)N1CCC[C@H]1C(=O)N[C@@H](CCSC)C(=O)N[C@@H](CC(C)C)C(=O)N[C@@H](CC(=O)O)C(=O)N[C@@H](CCSC)C(=O)N[C@@H](CCCCN)C(=O)N[C@@H](CC(=O)O)C(=O)O)C(C)C)C(C)C	Phosphatidylinositol 3-kinase regulatory subunit gamma, SH2 domain (Homo sapiens, UniProt Q92569)	binding			0.01 µM
C[C@H](NC(=O)[C@H](CCCCN)NC(=O)[C@@H](N)Cc1ccc(O)cc1)C(=O)O	PRT1	ITC		pH 7.5, 25 °C	14.9 ± 0.642 µM
CC(C)(O)C(O)C(=O)O (stereo not drawn)	Dihydroxy-acid dehydratase, chloroplastic (DHAD, Arabidopsis thaliana, UniProt Q9LIR4)	binding, microscale thermophoresis		25 °C	3.46 µM
C[C@H](NC(=O)[C@H](C)NC(=O)[C@@H](N)Cc1ccccc1)C(=O)O	PRT1	ITC		pH 7.5, 25 °C	6.43 ± 0.742 µM
CC[C@H](C)[C@H](NC(=O)[C@H](Cc1ccc(O)cc1)NC(=O)[C@H](CCC(=O)O)NC(=O)[C@H](Cc1c[nH]cn1)NC(=O)CNC(=O)[C@H](CC(=O)O)NC(=O)[C@H](CO)NC(=O)[C@H](CO)NC(=O)[C@@H](NC(=O)c1ccc2c(c1)C(=O)OC21c2ccc(N(C)C)cc2Oc2cc(N(C)C)ccc21)C(C)C)C(=O)N[C@@H](Cc1ccc(OP(=O)(O)O)cc1)C(=O)N[C@H](C(=O)N[C@@H](CC(=O)O)C(=O)N1CCC[C@H]1C(=O)N[C@@H](CCSC)C(=O)N[C@@H](CCC(N)=O)C(=O)N[C@@H](CC(C)C)C(=O)N1CCC[C@H]1C(=O)N[C@@H](CC(=O)O)C(=O)O)C(C)C	YES1 SH2 domain	binding			0.329 µM
CSCC[C@H](NC(=O)[C@H](CCCCN)NC(=O)[C@H](CCCNC(=N)N)NC(=O)[C@H](CCC(N)=O)NC(=O)[C@H](CCCNC(=N)N)NC(=O)[C@H](CCCNC(=N)N)NC(=O)[C@@H](N)CCCCN)C(=O)N[C@@H](CCC(=O)O)C(=O)N[C@@H](CC(=O)O)C(=O)N[C@@H](Cc1ccc(O)cc1)C(=O)N[C@@H](Cc1ccc(O)cc1)C(=O)N[C@@H](Cc1c[nH]cn1)C(=O)N[C@@H](CO)C(=O)N[C@@H](CCCCN)C(=O)N[C@@H](CCCNC(=N)N)C(N)=O	PCNA (Homo sapiens, UniProt P12004)	binding		pH 7.4	0.00815 µM
O=C(O)CCCc1c[nH]c2ccccc12	Receptor protein kinase TMK1, extracellular domain (TMK1, Arabidopsis thaliana, UniProt P43298)	binding			6.14 µM
CC(=O)CCCNC(=O)CCNC(=O)[C@H](O)C(C)(C)COP(=O)(O)OP(=O)(O)OC[C@H]1O[C@@H](n2cnc3c(N)ncnc32)[C@H](O)[C@@H]1OP(=O)(O)O	gltA, with oxaloacetate (Thermoplasma acidophilum, UniProt P21553)	binding, CD titration		pH 8, 20 °C	1.64 µM and 1.6 µM
CN[C@@H](Cc1c[nH]c2ccccc12)C(=O)O	N-methyl-L-tryptophan oxidase, oxidized (solA, Escherichia coli, UniProt P40874)	anaerobic stopped-flow		pH 8.0, 25 °C, reductive half-reaction, fast phase	1170 ± 59 µM
CC[C@H](C)[C@H](NC(=O)c1ccc2c(c1)C(=O)OC21c2ccc(N(C)C)cc2Oc2cc(N(C)C)ccc21)C(=O)N[C@@H](CCCCN)C(=O)N[C@@H](CCC(=O)O)C(=O)N[C@@H](CC(=O)O)C(=O)N[C@@H](CO)C(=O)N[C@@H](Cc1ccccc1)C(=O)N[C@@H](CC(C)C)C(=O)N[C@@H](CCC(N)=O)C(=O)N[C@@H](CCCNC(=N)N)C(=O)N[C@@H](Cc1ccc(OP(=O)(O)O)cc1)C(=O)N[C@@H](CO)C(=O)N[C@@H](CO)C(=O)N[C@@H](CC(=O)O)C(=O)N1CCC[C@H]1C(=O)N[C@H](C(=O)NCC(=O)N[C@@H](C)C(=O)N[C@@H](CC(=O)O)C(=O)O)[C@@H](C)O	YES1 SH2 domain	binding			0.295 µM
CO[C@@H]1[C@@H](OC(N)=O)[C@@H](O)[C@H](Oc2ccc3c(O)c(NC(=O)c4ccc(O)c(CC=C(C)C)c4)c(=O)oc3c2C)OC1(C)C	Multidrug resistance operon repressor (mexR, Pseudomonas aeruginosa, UniProt P52003, F17A/M14A/Q18A/R21A)				238 µM
CSCC[C@H](NC(=O)CNC(=O)[C@H](Cc1ccccc1)NC(=O)[C@H](CC(=O)O)NC(=O)CNC(=O)c1ccc2c(c1)C(=O)OC21c2ccc(N(C)C)cc2Oc2cc(N(C)C)ccc21)C(=O)N[C@@H](CO)C(=O)N[C@@H](CCCNC(=N)N)C(=O)N[C@@H](CC(=O)O)C(=O)N[C@H](C(=O)N[C@@H](Cc1ccc(OP(=O)(O)O)cc1)C(=O)N[C@@H](CO)C(=O)N[C@H](C(=O)N[C@@H](CC(=O)O)C(=O)N[C@@H](Cc1ccc(O)cc1)C(=O)N[C@@H](Cc1ccc(O)cc1)C(=O)N[C@@H](CCCNC(=N)N)C(=O)N[C@H](C(=O)N[C@@H](CC(=O)O)C(=O)O)C(C)C)[C@@H](C)O)C(C)C	YES1 SH2 domain	binding			0.545 µM
O=C(O)CCCN1CC=C(c2ccccc2)CC1	Ubiquitin carboxyl-terminal hydrolase 49, ZnF-UBD domain (USP49, Homo sapiens, UniProt Q70CQ1)				> 1000 µM

Repeated from above:
Structure (SMILES)	target	test	system	setting	Kd
CSCC[C@H](NC(=O)CNC(=O)[C@H](Cc1ccccc1)NC(=O)[C@H](CC(=O)O)NC(=O)CNC(=O)c1ccc2c(c1)C(=O)OC21c2ccc(N(C)C)cc2Oc2cc(N(C)C)ccc21)C(=O)N[C@@H](CO)C(=O)N[C@@H](CCCNC(=N)N)C(=O)N[C@@H](CC(=O)O)C(=O)N[C@H](C(=O)N[C@@H](Cc1ccc(OP(=O)(O)O)cc1)C(=O)N[C@@H](CO)C(=O)N[C@H](C(=O)N[C@@H](CC(=O)O)C(=O)N[C@@H](Cc1ccc(O)cc1)C(=O)N[C@@H](Cc1ccc(O)cc1)C(=O)N[C@@H](CCCNC(=N)N)C(=O)N[C@H](C(=O)N[C@@H](CC(=O)O)C(=O)O)C(C)C)[C@@H](C)O)C(C)C	YES1 SH2 domain	binding			0.545 µM
CC[C@H](C)[C@H](NC(=O)c1ccc2c(c1)C(=O)OC21c2ccc(N(C)C)cc2Oc2cc(N(C)C)ccc21)C(=O)N[C@@H](CCCCN)C(=O)N[C@@H](CCC(=O)O)C(=O)N[C@@H](CC(=O)O)C(=O)N[C@@H](CO)C(=O)N[C@@H](Cc1ccccc1)C(=O)N[C@@H](CC(C)C)C(=O)N[C@@H](CCC(N)=O)C(=O)N[C@@H](CCCNC(=N)N)C(=O)N[C@@H](Cc1ccc(OP(=O)(O)O)cc1)C(=O)N[C@@H](CO)C(=O)N[C@@H](CO)C(=O)N[C@@H](CC(=O)O)C(=O)N1CCC[C@H]1C(=O)N[C@H](C(=O)NCC(=O)N[C@@H](C)C(=O)N[C@@H](CC(=O)O)C(=O)O)[C@@H](C)O	YES1 SH2 domain	binding			0.295 µM
CSCC[C@H](NC(=O)[C@H](CC(=O)O)NC(=O)c1ccc2c(c1)C(=O)OC21c2ccc(N(C)C)cc2Oc2cc(N(C)C)ccc21)C(=O)N[C@@H](CO)C(=O)N[C@@H](CCCCN)C(=O)N[C@@H](CC(=O)O)C(=O)N[C@@H](CCC(=O)O)C(=O)N[C@@H](CO)C(=O)N[C@H](C(=O)N[C@@H](CC(=O)O)C(=O)N[C@@H](Cc1ccc(OP(=O)(O)O)cc1)C(=O)N[C@H](C(=O)N1CCC[C@H]1C(=O)N[C@@H](CCSC)C(=O)N[C@@H](CC(C)C)C(=O)N[C@@H](CC(=O)O)C(=O)N[C@@H](CCSC)C(=O)N[C@@H](CCCCN)C(=O)N[C@@H](CC(=O)O)C(=O)O)C(C)C)C(C)C	Phosphatidylinositol 3-kinase regulatory subunit gamma, SH2 domain (Homo sapiens, UniProt Q92569)	binding			0.01 µM
